Assay results from different studies.
Protocols differ between the studies behind these lines. ± marks the error that the study gave.
UniProt P43220, sequence (whole entry, looked up): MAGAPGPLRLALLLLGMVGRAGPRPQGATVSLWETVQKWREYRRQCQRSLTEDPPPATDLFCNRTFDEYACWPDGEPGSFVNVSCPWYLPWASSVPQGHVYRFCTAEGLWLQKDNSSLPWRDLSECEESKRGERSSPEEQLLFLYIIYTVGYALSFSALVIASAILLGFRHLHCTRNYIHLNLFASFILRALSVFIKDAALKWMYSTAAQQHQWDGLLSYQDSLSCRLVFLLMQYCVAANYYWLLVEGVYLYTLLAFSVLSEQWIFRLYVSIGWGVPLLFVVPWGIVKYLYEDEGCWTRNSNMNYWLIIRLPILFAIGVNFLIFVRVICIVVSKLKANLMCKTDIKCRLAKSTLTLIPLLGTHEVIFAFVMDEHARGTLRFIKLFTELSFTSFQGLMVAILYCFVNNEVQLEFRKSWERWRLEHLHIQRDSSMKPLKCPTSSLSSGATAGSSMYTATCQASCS

Structure (SMILES)	target or system	assay	system	conditions	scale	measurement	result
CC[C@H](C)[C@H](NC(=O)[C@H](CCCN)NC(=O)[C@H](CC(=O)O)NC(=O)[C@H](CC(C)C)NC(=O)C(C)(CC(C)C)NC(=O)[C@@H](NC(=O)[C@H](CO)NC(=O)[C@H](Cc1ccc(O)cc1)NC(=O)[C@H](CC(=O)O)NC(=O)[C@H](CO)NC(=O)[C@@H](NC(=O)[C@H](Cc1ccccc1)NC(=O)[C@@H](NC(=O)CNC(=O)[C@H](CCC(=O)O)NC(=O)C(C)(C)NC(=O)[C@@H](N)Cc1ccc(O)cc1)[C@@H](C)O)[C@@H](C)CC)[C@@H](C)CC)C(=O)N[C@@H](Cc1c[nH]cn1)C(=O)N[C@@H](CCC(N)=O)C(=O)NC(C)(C)C(=O)N[C@@H](CC(=O)O)C(=O)N[C@@H](Cc1ccccc1)C(=O)N[C@H](C(=O)N[C@@H](CCC(=O)O)C(=O)N[C@@H](Cc1ccc(O)cc1)C(=O)N[C@@H](CCCCNC(=O)COCCOCCNC(=O)COCCOCCNC(=O)CC[C@H](NC(=O)CCCCCCCCCCCCCCCCCCC(=O)O)C(=O)O)C(=O)N[C@@H](CC(C)C)C(=O)N[C@@H](CCC(=O)O)C(=O)NCC(=O)NCC(=O)N1CCC[C@H]1C(=O)N[C@@H](CO)C(=O)N[C@@H](CO)C(=O)NCC(=O)N[C@@H](C)C(=O)N1CCC[C@H]1C(=O)N1CCC[C@H]1C(=O)N1CCC[C@H]1C(=O)N[C@@H](CO)C(N)=O)C(C)C (stereo partly shown)	GLP1R (Homo sapiens, UniProt P43220)	cAMP accumulation, agonist	HEK293	9.95 µM		stimulation	0.5 ± 0.3%
Nc1c(C(=O)NCc2ccc(F)cc2F)c(=O)n(O)c2ncccc12	HIV-1 vector with IN T66I	single-round infectivity				EC50	0.6 ± 0.3 nM
C=C(C)C[C@H](OC)[C@H](O)C(=O)N[C@@H](OC)[C@@H]1CC(=O)C(C)(C)[C@@H](C[C@H](O)[C@@H](C)[C@H]2Cc3c(C)c(O)cc(O)c3C(=O)O2)O1	A2058	cell growth or viability				IC50	0.5 nM
CC[C@H](C)[C@H](N)C(=O)N[C@@H](Cc1c[nH]c2ccccc12)C(=O)N[C@@H](CC(C)C)C(=O)N[C@H](C(=O)N[C@@H](C)C(=O)N[C@@H](CC(C)C)C(=O)N[C@@H](CCCCN)C(=O)N[C@@H](Cc1ccccc1)C(=O)N[C@@H](CC(C)C)C(=O)NCC(=O)N[C@@H](CCCCN)C(=O)N[C@@H](Cc1c[nH]cn1)C(=O)N[C@@H](C)C(=O)N[C@@H](C)C(=O)N[C@@H](CCCCN)C(=O)N[C@@H](Cc1c[nH]cn1)C(=O)N[C@@H](CCC(=O)O)C(=O)N[C@@H](C)C(=O)N[C@@H](CCCCN)C(=O)N[C@@H](CCC(N)=O)C(=O)N[C@@H](CCC(N)=O)C(=O)N[C@@H](CC(C)C)C(=O)N[C@@H](CO)C(=O)N[C@@H](CCCCN)C(=O)N[C@@H](CC(C)C)C(=O)N[C@@H](CS)C(N)=O)[C@@H](C)O	human red blood cells			pH 5.5	relative to: Triton X-100	EC50	> 100000 nM
COc1ccc(-c2cnnn2-c2cc(OC)c(OC)c(OC)c2)cc1N	U2OS	cytotoxicity, nuclei counting		24 h		EC50	9.68 ± 1.63 nM
CC[C@@H](C)[C@@H](NC(=O)[C@@H](CCCCN)NC(=O)[C@@H](CCCCN)NC(=O)[C@@H](CC(C)C)NC(=O)[C@@H](Cc1c[nH]c2ccccc12)NC(=O)CN)C(=O)NCC(=O)N[C@H](CCCCN)C(=O)N[C@H](CCCCN)C(=O)N[C@@H](C(=O)N[C@H](CCC(=O)O)C(=O)N[C@H](CCCNC(=N)N)C(=O)N[C@@H](C(=O)NCC(=O)N[C@H](CCC(N)=O)C(=O)N[C@H](Cc1c[nH]cn1)C(=O)N[C@@H](C(=O)N[C@H](CCCNC(=N)N)C(=O)N[C@H](CC(=O)O)C(=O)N[C@H](C)C(=O)N[C@@H](C(=O)N[C@@H](C(=O)N[C@H](CCC(N)=O)C(=O)N[C@@H](C(=O)N[C@@H](C(=O)NCC(=O)N[C@@H](C(=O)N[C@H](C)C(=O)N[C@H](CCC(N)=O)C(=O)N[C@H](CCC(N)=O)C(=O)N[C@H](C)C(=O)N[C@H](C)C(=O)N[C@H](CC(N)=O)C(=O)N[C@@H](C(=O)N[C@H](C)C(=O)N[C@H](C)C(=O)N[C@@H](C(=O)N[C@H](CC(C)C)C(=O)N[C@H](CCCCN)C(N)=O)[C@H](C)O)C(C)C)C(C)C)[C@H](C)CC)[C@H](C)O)[C@H](C)CC)[C@H](C)O)[C@H](C)O)C(C)C)[C@H](C)CC			human erythrocytes			minimal haemolytic concentration	> 1020 mg/L
Cc1cc(/C=C/C#N)cc(C)c1Nc1nc(Nc2ccc(C#N)cc2)ncc1N	HIV-1	viral replication, single-round infection	RT mutant K101E			EC50	2.3 ± 1.2 nM
CCCCCCCCCCCCCCCC(=O)N[C@@H](CCC(=O)NCCOCCOCCC(=O)NCCOCCOCCC(=O)NCCCC[C@H](NC(=O)[C@H](CC(=O)O)NC(=O)[C@H](CC(C)C)NC(=O)[C@H](Cc1ccc(O)cc1)NC(=O)[C@H](CCCCN)NC(=O)[C@H](CO)NC(=O)[C@H](Cc1ccc(O)cc1)NC(=O)[C@H](CC(=O)O)NC(=O)[C@H](CO)NC(=O)[C@@H](NC(=O)[C@H](Cc1ccccc1)NC(=O)[C@@H](NC(=O)CNC(=O)[C@H](CCC(N)=O)NC(=O)[C@@H](CO)NC(=O)[C@@H](N)Cc1c[nH]cn1)[C@@H](C)O)[C@@H](C)O)C(=O)N[C@@H](CCCNC(=N)N)C(=O)N[C@@H](CCCNC(=N)N)C(=O)N[C@@H](C)C(=O)N[C@@H](CCC(N)=O)C(=O)N[C@@H](CC(=O)O)C(=O)N[C@@H](Cc1ccccc1)C(=O)N[C@H](C(=O)N[C@@H](CCC(N)=O)C(=O)N[C@@H](Cc1c[nH]c2ccccc12)C(=O)N[C@@H](CC(C)C)C(=O)N[C@@H](CC(C)C)C(=O)N[C@@H](CC(N)=O)C(=O)N[C@H](C(=O)NCC(=O)NCC(=O)N1CCC[C@H]1C(=O)N[C@@H](CO)C(=O)N[C@@H](CO)C(=O)NCC(=O)N[C@@H](C)C(=O)N1CCC[C@H]1C(=O)N1CCC[C@H]1C(=O)N1CCC[C@H]1C(=O)N[C@@H](CO)C(N)=O)[C@@H](C)O)C(C)C)C(=O)O	LX-2	agonist, Western blot		200 µM, 48 h		α-SMA protein level	decreased
CC[C@H](C)[C@@H]1NC(=O)[C@@H](NC(=O)[C@H](CO)NC(=O)[C@@H](N)CCCNC(=N)N)CSSC[C@@H](C(=O)N[C@@H](CCCCN)C(N)=O)NC(=O)[C@H]([C@@H](C)O)NC(=O)CNC(=O)[C@@H]2CSSC[C@@H]3NC(=O)[C@H](CCC(N)=O)NC(=O)[C@H](Cc4ccccc4)NC(=O)[C@H](C)NC(=O)[C@H]([C@@H](C)O)NC(=O)[C@H](CSSC[C@H](NC(=O)[C@H](Cc4ccccc4)NC(=O)[C@H](CO)NC(=O)[C@H](CC(C)C)NC(=O)[C@H](CCCNC(=N)N)NC(=O)[C@H](Cc4ccc(O)cc4)NC(=O)[C@H](CCCCN)NC(=O)[C@H](CCSC)NC(=O)[C@H](CO)NC(=O)[C@H](Cc4c[nH]cn4)NC(=O)[C@H](CCCCN)NC3=O)C(=O)N[C@@H](CCCNC(=N)N)C(=O)N[C@@H](CCCCN)C(=O)N[C@@H]([C@@H](C)O)C(=O)N2)NC(=O)[C@H](CCCNC(=N)N)NC(=O)[C@H](CO)NC(=O)[C@H](CCCCN)NC(=O)[C@@H]2CCCN2C(=O)[C@H]([C@@H](C)CC)NC(=O)[C@H]([C@@H](C)O)NC(=O)[C@H](CC(=O)O)NC1=O	human T-lymphocyte	lymphocyte proliferation, inhibitor, thymidine uptake				IC50	~3 nM
Cc1cc(/C=C/C#N)cc(C)c1-n1cnc2cnc(Nc3ccc(C#N)cc3)nc21	HIV-1	viral replication, single-round infection	RT mutant M230L			EC50	4.2 ± 0.5 nM
CCCCCCCCCCCCCCCC(=O)N[C@@H](CCC(=O)NCCOCCOCCC(=O)NCCOCCOCCC(=O)NCCCC[C@H](NC(=O)[C@H](CC(=O)O)NC(=O)[C@H](CC(C)C)NC(=O)[C@H](Cc1ccc(O)cc1)NC(=O)[C@H](CCCCN)NC(=O)[C@H](CO)NC(=O)[C@H](Cc1ccc(O)cc1)NC(=O)[C@H](CC(=O)O)NC(=O)[C@H](CO)NC(=O)[C@@H](NC(=O)[C@H](Cc1ccccc1)NC(=O)[C@@H](NC(=O)CNC(=O)[C@H](CCC(N)=O)NC(=O)[C@@H](CO)NC(=O)[C@@H](N)Cc1c[nH]cn1)[C@@H](C)O)[C@@H](C)O)C(=O)N[C@@H](CCCNC(=N)N)C(=O)N[C@@H](CCCNC(=N)N)C(=O)N[C@@H](C)C(=O)N[C@@H](CCC(N)=O)C(=O)N[C@@H](CC(=O)O)C(=O)N[C@@H](Cc1ccccc1)C(=O)N[C@H](C(=O)N[C@@H](CCC(N)=O)C(=O)N[C@@H](Cc1c[nH]c2ccccc12)C(=O)N[C@@H](CC(C)C)C(=O)N[C@@H](CCCC)C(=O)N[C@@H](CC(N)=O)C(=O)N[C@H](C(=O)NCC(=O)NCC(=O)N1CCC[C@H]1C(=O)N[C@@H](CO)C(=O)N[C@@H](CO)C(=O)NCC(=O)N[C@@H](C)C(=O)N1CCC[C@H]1C(=O)N1CCC[C@H]1C(=O)N1CCC[C@H]1C(=O)N[C@@H](CO)C(N)=O)[C@@H](C)O)C(C)C)C(=O)O	LX-2	agonist, Western blot		200 µM, 48 h		α-SMA protein level	decreased
COc1cc2c(Nc3ccc(NC(=O)c4ccccc4)cc3)ncnc2cc1OCCCN1CCOCC1	DLD-1			concentration not given, 1 h	relative to: untreated	kinetochore BubR1 level	~10%
CC1=C[C@H]2O[C@@H]3[C@H](O)C[C@](C)([C@@]2(CO)[C@H](O)C1=O)[C@]31CO1	HK-2	cell growth or viability, SRB		24 h		IC50	12300 nM

Repeated from above:
Structure (SMILES)	target or system	assay	system	conditions	scale	measurement	result
C=C(C)C[C@H](OC)[C@H](O)C(=O)N[C@@H](OC)[C@@H]1CC(=O)C(C)(C)[C@@H](C[C@H](O)[C@@H](C)[C@H]2Cc3c(C)c(O)cc(O)c3C(=O)O2)O1	A2058	cell growth or viability				IC50	0.5 nM
